# Measurements pooled from the literature.
# Compare with care: the assays were run in different laboratories.
# Target: Serine/threonine-protein kinase PknB (pknB, Mycobacterium tuberculosis, UniProt P9WI81)
Structure (SMILES),assay,conditions,scale,endpoint,result
C=CC(=O)N1CCc2ccc(-n3c(=O)ccc4cnc5ccc(-c6cnn(C)c6)cc5c43)cc21,KINOMEscan,1 µM,relative to: control,remaining binding,99%
Cc1ccc(-c2c(/C=C(\C#N)C(=O)NC(C)C)n(CCCO)c3ncnc(N)c23)cc1,"cell-free assay, competition with immobilised ligand",1 µM,,remaining binding,100%
CC(C)=CC1OC(C)(C)C2C=C3C(=O)C(Cl)=CC(O)C3C3C(O)C4OC4C(=O)C132 (centres unmarked),"cell-free assay, competition with immobilised ligand",10 µM,,remaining binding,98%
CNC(=O)C1CCN(c2cc(C)c(F)cc2NC(=O)c2ccc(-c3cc(O)ccc3C)c(C)c2)CC1,"binding, competition with immobilised ligand",1 µM,,remaining binding,91%
COc1c(Cl)cccc1Nc1c(-c2ccncc2C#C[C@@]2(C)CCCN2C(=O)/C=C/CN(C)C)[nH]c2c1C(=O)NCC2,"cell-free assay, competition with immobilised ligand",3 µM,,remaining binding,100%
COc1cc(Nc2nccc(-c3cnn4nc(OC)ccc34)n2)cc(C(F)(F)F)c1,"binding, competition with immobilised ligand",1 µM,,remaining binding,72%
CCN1CCN(Cc2ccc(C(=O)Nc3ccc(C)c(NCc4cnc5[nH]ccc5c4OC)c3)cc2C(F)(F)F)CC1,"binding, competition with immobilised ligand",1 µM,,remaining binding,100%
C=CC(=O)N1CCCC(n2c(=O)c3ncccc3n(Cc3ccc(Oc4ccccc4)cc3)c2=O)C1 (centres unmarked),"cell-free assay, competition with immobilised ligand",1 µM,,remaining binding,100%
Cc1cnc2nc1Nc1cccc(c1)COC/C=C/COCc1cc(ccc1OCCN1CCOCC1)N2,"binding, competition with immobilised ligand",0.1 µM,,remaining binding,97%
CNC1C[S+]2CC[S+]3CC[S+](C1)[Ru-4]321([N]=C=S)[n]2c3ccc(OC)cc3c3c4c(c5cc(F)c[n+]1c5c32)C(=O)NC4=O (centres unmarked),,0.1 µM,,remaining activity,99%
Nc1ncc2c(n1)-c1c([nH]c3ccc(C4=CCOCC4)cc13)CCC2,"binding, competition with immobilised ligand",1 µM,,remaining binding,96%

# Some of these lines once more:
Structure (SMILES),assay,conditions,scale,endpoint,result
COc1cc(Nc2nccc(-c3cnn4nc(OC)ccc34)n2)cc(C(F)(F)F)c1,"binding, competition with immobilised ligand",1 µM,,remaining binding,72%
